Measured values from different studies.
Each numbered part is a random draw from the data of one study; scales do not carry over between parts.

Series 1
Target: Interferon regulatory factor 7, full length, phosphomimetic (IRF7, Homo sapiens, UniProt Q92985, residues 1-503, S101K/S471D/S472D/S475D/S476D/S477D/S483D/S484D/S487D)
UniProt Q92985, sequence (whole entry, unmodified, looked up): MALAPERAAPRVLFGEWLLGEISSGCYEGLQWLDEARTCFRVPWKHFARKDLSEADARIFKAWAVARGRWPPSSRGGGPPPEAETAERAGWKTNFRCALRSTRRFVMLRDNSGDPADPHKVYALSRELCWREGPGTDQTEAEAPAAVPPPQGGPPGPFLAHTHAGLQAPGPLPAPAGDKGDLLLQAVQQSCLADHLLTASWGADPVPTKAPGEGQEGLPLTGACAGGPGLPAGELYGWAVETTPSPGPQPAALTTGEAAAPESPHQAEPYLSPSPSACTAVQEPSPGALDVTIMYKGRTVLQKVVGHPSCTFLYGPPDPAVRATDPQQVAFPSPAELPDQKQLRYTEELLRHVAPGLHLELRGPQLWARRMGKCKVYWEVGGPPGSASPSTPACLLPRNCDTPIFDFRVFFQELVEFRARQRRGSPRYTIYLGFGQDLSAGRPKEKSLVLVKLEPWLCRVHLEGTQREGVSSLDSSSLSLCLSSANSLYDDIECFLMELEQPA
Technique: protein-binding microarray
Molecule type: double-stranded DNA, one strand shown
Sample: in vitro
Concentration: 250 nM
Setting: 60-bp whole probe
Added: salmon DNA 0.4 mg/ml
Baseline: random background probes
Direction: higher = stronger binding
Shared flanks, not repeated: GCCTAGCAC … GTCTTGATTCGCTTGACGCTGCTG
Sequence | log fluorescence [z-score]
GGGCACATCTTAACATATGAGTGCTAG | 0.063
GACGGACCGGGTATCGGGACGTGCTAG | 0.0715
TTAGGTTTCGGGAGTGGGTTAGTGCTA | 1.89
TTAGATTTCGGGACTGTATTAGTGCTA | 0.681
CTGTTTCTACTGTCTGTTTCCGTGCTA | 3.28
TCATATATCCATTATAGACTGTGCTAG | 0.784
TTAGATTTCAGTCTCGATTGGTGCTAG | 2.8
TCAGCATTCGAATTCAGACTGTGCTAG | -0.178
GCAAAAATGATTGGTTGAACGTGCTAG | -0.353
GACGTTCTCCTTATCCTGACGTGCTAG | 1.1
TCACCTCTAGGTTTTCTACTGTGCTAG | -0.277
TTTGGACTGGACTTTCGGTTAGTGCTA | 0.816
TCAGGTTTCGACTTTCGGTTAGTGCTA | 11.1
TTAGGTCTCCTTCTACTTTAGTGCTAG | 0.377
GACGGACTGGGTTTCGGGTCGTGCTAG | 5.18
TCAATTTCAGTTTTCTTACTGTGCTAG | 1.52
TCACATGTGCCTTTATAACTGTGCTAG | 0.178
TTAGATTTCGGTTTCGATTAGTGCTAG | 11.3
TCATATATACCTGTATAACTGTGCTAG | 0.574
TTATGTATCGGGACTGGGTTAGTGCTA | 0.0455

Series 2
Target: Sal-like protein 4, full length isoform B (SALL4, Homo sapiens, UniProt Q9UJQ4-2, residues 1-616)
Technique: universal PBM
Molecule type: double-stranded DNA, one strand shown
Sample: in vitro
Concentration: not given
Setting: 8-mer, flanks averaged, mean of replicates
Direction: higher = stronger binding
Sequence | E-score
GTTAAATA | 0.314
CCTGTACA | 0.121
GATTGCCC | 0.0118
ATACGGTG | -0.00658
AACATGGC | -0.0433
TACCGATA | 0.121
CCCTTCCA | -0.226
AACTTGAT | 0.322
AGATCGCG | -0.214
GAGGGTGC | -0.192
CCTCCACA | -0.0659
ATACAGAG | 0.118
ATCGTTGC | -0.0941
CCATTGAA | -0.0285
CGCGGTGA | -0.31
AGAGCGTC | -0.0977
CACCAGCC | -0.265
ACATGCTG | -0.0881
CGTTCTAG | -0.0826
AGATAGCC | -0.142
CAAGCACC | -0.208
CGGTCTAA | -0.0021
ACAGTGCT | -0.0986
TGAGGGAA | 0.0534
GTGCTTCA | 0.0334

Series 3
Target: RNA binding protein fox-1 homolog 2, RRM domain, GST-SBP tag (RBFOX2, Homo sapiens, UniProt O43251-10, residues 100-194)
Technique: RNA Bind-n-Seq
Molecule type: RNA
Sample: in vitro
Concentration: 365 nM
Setting: natural RNA segment, single round, ends assumed
Baseline: no-protein control
Direction: higher = stronger binding
Target sequence (chain): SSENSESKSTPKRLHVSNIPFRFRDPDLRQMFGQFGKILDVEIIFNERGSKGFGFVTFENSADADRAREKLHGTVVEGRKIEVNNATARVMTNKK
Sequence | RBNS enrichment (R)
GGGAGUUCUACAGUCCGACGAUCACUCUGGGUUUCAGAGAGUAGUAUUGGUUUCAGUCUGGUCUCAUUUCCAUUGCCUUAACGCUGGGUGGUCAGGGCCCCAAGGAACUCUGGAUCUAAGCUCAGGAGUACACUGGAAUUCUCGGGUGCCAA | 0.255
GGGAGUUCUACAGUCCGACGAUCCUCAUAUCCAUUCCAUGAGAAGGUGAGGGAUACCUCCUUGGGGCUGUUUGUAUCAUGGACUGUCAUGCUCUAUGCCUGGUCCUGGGGUCUCUAGAGGAUACUCAUCUGGAUGGAAUUCUCGGGUGCCAA | 0.522
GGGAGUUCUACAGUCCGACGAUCAGAUUUGGGGCCACAUUGUUUACAAACUAUACACACCAGGUUAAUAGACACCCCGUCUUAAGCACCAGCUCCUCUUGGGUGCCCCCAGAGCCCCUGCAACUGUUAUCCACUGGAAUUCUCGGGUGCCAA | 0.643
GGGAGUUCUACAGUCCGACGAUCCCAAAGUAAAACAUUAGGUCAGGCAUGGUGGCUCAGGCCUGUAAUCCCAGCAUUUUGGGAGGCUGAGGCAAGUGGAUAACUUGAGGUCAUGAGUUCGAAACCAGCCUGGCUGGAAUUCUCGGGUGCCAA | 1.65
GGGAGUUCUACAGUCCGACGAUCAGGUGAGGCCUGCUGUGCUGCCCGCACACCUGAGUGCAAAACCAAGCACUGUGGGCAUGGUGUUUCCCUCUCUGGGGUAGAGUACGCCCUCUCGCUGGGCAAAGAGGAAGUGGAAUUCUCGGGUGCCAA | 0.28
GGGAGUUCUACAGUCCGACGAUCAUCUUGAGAGCUGAGGCUAGGUCCUCCCAGCUACUGUUAGGCAUUGAGGUACUAAAACUGCAGGUGGGUAUGUCCAUCUCAUCCAUUGUGGCUUGAGACCGGCCUUCAGGUGGAAUUCUCGGGUGCCAA | 0.382
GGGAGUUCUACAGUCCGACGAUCGCAUUAUUCACUAGAUGCAAAGGGAGCCAGCAAGAUGGCUCAGUGAGUCUGGGUGCUUGUCACCUAGCCUGACAUUCUGAGUUCAAUCCCUGGGACCCGCCUGAUAGGAGUGGAAUUCUCGGGUGCCAA | 0.304
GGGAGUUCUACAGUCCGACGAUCCGAGGGCUCCGGAUCCCUUAUCCUACUUAGCAGUGUUGGUCUCUGGGGCUGGAAGCCGAGCGCAUGCUGGGAGCGGUACUGUCAGAAGUGAGCCCAGUUAGUACCCCGCUUGGAAUUCUCGGGUGCCAA | 3.02
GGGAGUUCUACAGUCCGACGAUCCACAGCUUCCUCUCUUAUAUUAAUUGAUGGAAUUUUACUGUAUGUGCCUCUGUACAAGAUGUAGCUUUGAGAGCUACAAAAUGAUAACACUGCUUUAUUACACACUGGUUUGGAAUUCUCGGGUGCCAA | 0.448
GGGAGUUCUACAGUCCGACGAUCUGGCUUCCGCAGCUACCGUCUGCACGGUGAGAGGGCACGGGCACACGGUUCGGGCUGGCGUGCAGCUCUCCCAGCCAGCCACGCUCUGCUCAGGCCUGGAAGUGAAAGCCUGGAAUUCUCGGGUGCCAA | 0.683
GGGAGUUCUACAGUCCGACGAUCAGUGCACAGUCCCAGAGUCACGAGGCGUGGACUUCCUUCCCCACGAUGGGCCAGGGGGCCUUACCAUUUCCCUGGGCUCUACUGCCUAGACAAACCCAGCCCGGACUCCAUGGAAUUCUCGGGUGCCAA | 0.42
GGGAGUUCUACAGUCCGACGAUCAGCCAUGCAGUUACAUCUCUUUCUAAAUGAGGUCAGGUUUGCAAAUAAUAACAACAAAAAAGCUUUGUUUAGUCUUUGUUUUGUUUUCCAGGACAAAAACAAGCUUCCCUUGGAAUUCUCGGGUGCCAA | 0.457

Series 4
Target: Protein C-ets-1 (ETS1, Homo sapiens, UniProt P14921, residues 1-441, Y397A, full length assumed)
UniProt P14921, sequence (whole entry, unmodified, looked up): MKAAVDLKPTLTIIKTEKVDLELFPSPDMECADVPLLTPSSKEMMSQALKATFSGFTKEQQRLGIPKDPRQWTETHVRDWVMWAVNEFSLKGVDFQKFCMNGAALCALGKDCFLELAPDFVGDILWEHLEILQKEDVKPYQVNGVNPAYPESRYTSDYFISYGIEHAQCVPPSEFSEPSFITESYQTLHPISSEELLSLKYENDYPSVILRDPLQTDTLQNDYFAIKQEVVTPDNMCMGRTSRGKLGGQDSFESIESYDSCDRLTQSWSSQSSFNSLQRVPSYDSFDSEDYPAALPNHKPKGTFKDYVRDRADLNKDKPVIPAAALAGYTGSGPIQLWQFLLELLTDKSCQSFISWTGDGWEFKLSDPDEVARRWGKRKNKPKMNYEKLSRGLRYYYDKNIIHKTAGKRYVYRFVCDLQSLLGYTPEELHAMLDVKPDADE
Technique: protein-binding microarray
Molecule type: double-stranded DNA, one strand shown
Sample: in vitro
Concentration: not given
Setting: k-mer, scored over probes, only values ≥0.25
Direction: higher = stronger binding
Sequence | E-score
CTTTGTCA | 0.34
ACATTGTC | 0.374
CGTCGTTC | 0.282
CGACGTCG | 0.311
GACAAATA | 0.321
CGCAAAAC | 0.293
ACACAAAC | 0.304
CAATTCCG | 0.283
AACGTAAT | 0.257
ACCGGAAA | 0.421
ACTTTGCC | 0.253
AACGACAA | 0.367
ACACGTCA | 0.261
AGGCAAAC | 0.318
CGGAAACA | 0.384
CCGACAAC | 0.304
CACCGGAA | 0.401
AATAGCAA | 0.269
ACAACAAC | 0.331

For quick reference, copied from above (series 1):
Sequence | log fluorescence [z-score]
GCAAAAATGATTGGTTGAACGTGCTAG | -0.353
GACGTTCTCCTTATCCTGACGTGCTAG | 1.1
TCACCTCTAGGTTTTCTACTGTGCTAG | -0.277
TTTGGACTGGACTTTCGGTTAGTGCTA | 0.816
TCAGGTTTCGACTTTCGGTTAGTGCTA | 11.1
